Assay results of several laboratories.
Each numbered part is a random draw from the data of one study; scales do not carry over between parts. Positions count from the first letter of the parent shown.
UniProt P61088, sequence (whole entry, looked up): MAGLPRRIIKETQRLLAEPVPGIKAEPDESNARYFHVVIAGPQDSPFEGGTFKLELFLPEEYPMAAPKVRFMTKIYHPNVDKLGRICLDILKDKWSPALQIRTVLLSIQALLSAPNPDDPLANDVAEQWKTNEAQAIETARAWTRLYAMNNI
UniProt P51965, sequence (whole entry, looked up): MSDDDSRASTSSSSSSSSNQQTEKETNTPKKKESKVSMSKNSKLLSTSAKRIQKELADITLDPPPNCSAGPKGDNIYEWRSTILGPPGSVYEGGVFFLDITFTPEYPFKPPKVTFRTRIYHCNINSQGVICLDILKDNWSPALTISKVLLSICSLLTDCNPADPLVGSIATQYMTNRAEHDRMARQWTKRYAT
UniProt Q96LR5, sequence (whole entry, looked up): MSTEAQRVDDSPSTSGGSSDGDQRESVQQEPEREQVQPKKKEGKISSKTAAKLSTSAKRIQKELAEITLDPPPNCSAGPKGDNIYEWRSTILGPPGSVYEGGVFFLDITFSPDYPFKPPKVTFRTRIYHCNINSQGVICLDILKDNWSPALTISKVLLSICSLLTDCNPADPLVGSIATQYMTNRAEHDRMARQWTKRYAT
UniProt P61077, sequence (whole entry, looked up): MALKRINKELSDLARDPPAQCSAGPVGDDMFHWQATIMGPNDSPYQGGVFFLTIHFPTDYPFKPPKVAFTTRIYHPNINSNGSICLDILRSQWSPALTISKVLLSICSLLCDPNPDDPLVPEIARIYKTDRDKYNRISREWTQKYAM

Set 1
Target: RING finger protein unkempt homolog, zinc fingers 1-6, GST-SBP tag (UNK, Homo sapiens, UniProt Q9C0B0, residues 30-357)
UniProt Q9C0B0, sequence (30-357, looked up): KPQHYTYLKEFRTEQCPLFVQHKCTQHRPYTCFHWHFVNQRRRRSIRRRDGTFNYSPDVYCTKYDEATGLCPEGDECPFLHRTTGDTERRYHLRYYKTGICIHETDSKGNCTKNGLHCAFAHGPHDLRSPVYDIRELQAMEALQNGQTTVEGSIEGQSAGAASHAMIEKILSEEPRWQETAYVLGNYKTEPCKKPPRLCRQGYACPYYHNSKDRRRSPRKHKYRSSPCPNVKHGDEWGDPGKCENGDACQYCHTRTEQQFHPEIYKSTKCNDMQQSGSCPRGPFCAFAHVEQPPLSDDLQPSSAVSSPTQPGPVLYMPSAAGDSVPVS
Method: RNA Bind-n-Seq
Molecule type: RNA
Sample: in vitro
Concentration: not given
Setting: RNA with constant flanks, human-mouse chimeric sites, ends assumed
Baseline: input RNA pool
Reading: higher = stronger binding
Endpoint: bound/input enrichment
Shared flanks, not repeated: GGGAGUUCUACAGUCCGACGAUC … CAACAGAGGAUUGAGCAUCA
CAGCGCCGAGGCCGCGGUUUCCCCCUGGGCCUCCCCAGCAGCAGCCAUGGGCAUCAAAUUUUUAGAAGUUAUCAAACCUUUCUGUGCAGUUCUACCAGAAAUUCAGAAGCCUGAAAGGAA: 1.42 ratio
UAAGUCCUGUGCCAGCACUUCGCUCAUUAUAUUUUAAAUUCUGGACCAAUAGUGUUUGUUUCCUGAUUAUUGUAUCCAAUACUUUGCCUAGUAUGUAACUCACUCUUCUGGAUAAAUAAA: 6.66 ratio
CCACCAGGAUCCCAGAAACAUGACCCUUGCUGCCUACAAAGAGAAGAUGAAGGAGCUCCCGCUGGUGUCUCUGUUCUGCUCCUGCUUCCUGGCCGAUCCCCUGAAUAAGUCGUCCUACAA: 0.254 ratio
UCCCAAAUCCAGCAGCUAGAAGGAGCCUUGAGACAAACACUCCACACACAGGGAAGGCAAUAGCUUUGUACAUUGGUUUACAUUUUUCUCCUUGAAUGAUUUUUCUAGAGGUCAUAGUGC: 0.86 ratio
GGACCAUAAUCAUGGAGGACAUAAUGCAGCUCCCCAAAGCGCGCGUCAACGCCAGCAUGUUACCACAGUAUAUCGACCGGCCCGUGUGCUUCGUAGGGAAGCUGGAAAAGAUUCAUCCCA: 0.133 ratio
UACUCAACUUUCUUGCCACAUUUUGAAUUCCAAGACAUUAUUCCUCCAGAUGACUUUCUAACGAGUGAUGAAGAGCAAGAUUUGGUUUUAUUUGGAACUAUGAGAGGACAAGUUGUUGGA: 0.194 ratio
GUAGCUGGGACUACAGAAAUGCUGGUAAUUUCAGUCACUUGCUGAUGACUUCUGAUGUCCCAGCAAAUAAUGCCACAGUUGACUGCUCUGUGAAGACUUCUGAGGACCCACGUCUAAGGU: 0.112 ratio
AACAUUUUGUCAAAUUGUUAUGUUCCUGUGAAACAAGUGAACACUCUGAUACACUUCAUCUGCUUGUACAUCUGUAUGAUAGAGAAAUGUAAAUAUGUUAAUCCAAGCAAUGUGUCACUU: 0.254 ratio

Set 2
Sequence: B1 (TRIM62 RING domain)
Method: yeast two-hybrid
Sample: yeast
Setting: mostly zero background
Baseline: not given
Reading: higher = stronger interaction
Endpoint: lacZ reporter activity
B1: TRIM62 RING domain (UniProt Q9BVG3); chain MACSLKDELLCSICLSIYQDPVSLGCEHYFCRRCITEHWVRQEAQGARDCPECRRTFAEPALAP
UBE2N UBC core domain (UniProt P61088): 0
UBE2E1 UBC core domain (UniProt P51965): 0
UBE2E2 UBC core domain (UniProt Q96LR5): 0
UBE2D3 UBC core domain (UniProt P61077): 0

Set 3
Target: CCNB2, cyclin fold, Cln2 fusion (human)
Method: yeast growth competition, sequencing
Sample: yeast
Setting: weak parent motif
Baseline: not given
Reading: higher = stronger binding
Endpoint: normalised enrichment score
Starting sequence: CDKN1B docking peptide (human); PSACRNLFGPVDH
PSACRMLFGPVDH [N6M]: 0.282
PSACRNLFGPVNH [D12N]: 0.0244
HSACRNLFGPVDH [P1H]: 0.132
PSAHRNLFGPVDH [C4H]: 0.0756
PSAKRNLFGPVDH [C4K]: 0.217
PSACRNLFGPVTH [D12T]: 0.0123
PDACRNLFGPVDH [S2D]: -0.26
PSYCRNLFGPVDH [A3Y]: 0.134
PSACRNNFGPVDH [L7N]: -0.15
PSACRNLFGPVYH [D12Y]: 0.379
PSACRNLFGPMDH [V11M]: 0.17
TSACRNLFGPVDH [P1T]: 0.312
PSAWRNLFGPVDH [C4W]: 0.247
PSACRNLFNPVDH [G9N]: -0.125
PCACRNLFGPVDH [S2C]: 0.0416

Set 4
Target: Histone acetyltransferase KAT6A, winged helix 2, GST fusion (KAT6A, Homo sapiens, UniProt Q92794, residues 85-181)
Method: protein binding microarray
Molecule type: double-stranded DNA, one strand shown
Sample: in vitro
Concentration: not given
Setting: 8-mer, flanks averaged, mean of 2 arrays, mostly near background
Baseline: not given
Reading: higher = stronger binding
Endpoint: E-score
Target sequence (chain): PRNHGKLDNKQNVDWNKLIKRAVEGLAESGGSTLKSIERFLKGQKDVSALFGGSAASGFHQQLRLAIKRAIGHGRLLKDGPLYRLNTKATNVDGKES
GATCGTAC: -0.233
AAGTATAT: -0.0621
AGCCTAGG: 0.0451
GCTTATCA: 0.00825
CGCGTACA: -0.105
ATCGCATG: 0.109
AACAAACG: -0.127
GGTTTGAA: 0.0805
ACTGTAGG: -0.0482
AGCGGGGA: -0.00245
CCAACGGC: 0.085
CTCCCCCC: 0.108
TCAATAGA: -0.155
GAGCTAAA: -0.0561
AGCGAAGG: 0.0309
GAGGGCAA: 0.227

Some of these lines once more (set 3):
PSAWRNLFGPVDH [C4W]: 0.247
PSAKRNLFGPVDH [C4K]: 0.217
PDACRNLFGPVDH [S2D]: -0.26
PSACRNLFNPVDH [G9N]: -0.125
PSACRNLFGPMDH [V11M]: 0.17
